Assay results gathered from unrelated publications.
A part holds a random share of what one study measured. Substitutions count along the parent as printed.

Set 1
Target: CCND1, cyclin fold, Cln2 fusion (human)
Method: yeast growth competition, sequencing
Medium: yeast
Setting: weak parent motif
Baseline: not given
Reading: higher = stronger binding
Endpoint: normalised enrichment score
Starting sequence: WEE1 docking peptide (human); HKTFRKLRLFDTP
F4M: 0.611
L9P: -0.382
D11N: -0.202
T12S: 0.235
F4E: -0.0232
R5L: 0.467
R5F: 0.0623
R5D: 0.406
T3W: 0.51

Set 2
Target: RING finger protein unkempt homolog, zinc fingers 1-6, GST-SBP tag (UNK, Homo sapiens, UniProt Q9C0B0, residues 30-357)
Method: RNA Bind-n-Seq
Molecule type: RNA
Medium: in vitro
Tested at: not given
Setting: RNA with constant flanks, human and mouse sites, ends assumed
Baseline: input RNA pool
Reading: higher = stronger binding
Endpoint: bound/input enrichment
All sequences stand within: GGGAGUUCUACAGUCCGACGAUC … CAACAGAGGAUUGAGCAUCA
Target sequence (chain): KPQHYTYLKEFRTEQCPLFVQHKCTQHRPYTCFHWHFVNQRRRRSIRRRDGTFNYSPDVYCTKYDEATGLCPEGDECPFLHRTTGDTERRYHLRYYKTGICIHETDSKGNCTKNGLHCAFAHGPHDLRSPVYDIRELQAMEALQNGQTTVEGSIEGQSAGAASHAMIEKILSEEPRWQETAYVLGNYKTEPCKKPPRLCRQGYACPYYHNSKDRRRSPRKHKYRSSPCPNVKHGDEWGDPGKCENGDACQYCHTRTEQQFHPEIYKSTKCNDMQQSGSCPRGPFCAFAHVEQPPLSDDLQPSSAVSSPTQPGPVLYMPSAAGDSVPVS
ACCCAGGCUGACGAGGACCCUCAGAUGUCCAUGGUUGAAGACUGUCAUGCGUCAGAACAUAAUAGCCCUAUCUCCUCCGUUCAGUCUCACCCCAGCCAGUCAGUCCGUUCGGUCAGCAGU: 0.133 ratio
UUUUUCUUGUGUAUACAAGUAUAUAUUUUUGUUUGACGCGGACUAAAUCAUUUUCAUUUAAUUUCCGGUAAACAAAACCCACGCGAAUGGGCACUUGUUCCCGAUCAUAAUAAAAAUGGA: 0.35 ratio
AGUUAUUAGACUUGCUAAUACAAGCAUACAUGUGCAACAGCUACUGGAUACUGAUAGCUAUCAAACCUCAAAUUUAAAGAUUUUCCUUCAUGGAAAAGUUACUAUACUUUGCAAGAAACC: 0.406 ratio
CUCAUGCAAAAGGAUUUUGUAUCCCCGGCCUACUUGAAGAAGUGGUCAGCUAAAGGAAUCCAGGUUGUUGGUUGGACUGUUAAUACCUUUGAUGAAAAGAGUUACUACGAAUCCCAUCUU: 0.0773 ratio
GUGUGUACAUUGUCCAAAAUGCUGGAGAUUCUCGAGCAGCAGAAAAAAGUUGAUGCUGAGACAGUUGGGAGAGUGAAGAGGUUUAUUCAGGAGAAUGUCUUUGUGGCAGCGAAUCAUAAU: 0.227 ratio
UUUUUUAUUAAAAUUAUUUUUCCUGCCUGUUGUUGGAUUUGGGGAAAUUUUUUGUUUGUUUUUUAUGAUUUGUAUUUGACUGAGAGAAACCCACUGAAGACGUCUGCGUGAGAAUAGAGA: 0.58 ratio
UUGACAUUACAGCCAAGAUGGUGCUGUCCCAGAGACAACGAGAUGAACUAAAUCGAGCUAUAGCAGAUUAUCUUCGUUCAAAUGGCUAUGAAGAGGCAUAUUCAGUUUUUAAAAAGGAAG: 0.279 ratio
GAAGCUGACAAGUGGAGCACGCUGAGUGCUGAUAUUGAGGAGACCUUCAAAACUCAAGACAUAGCUGUGAUUUCUGCAAAGCUGACCGGCAUGCAGAACAGCUUGAUGAUGCUUGUGGAU: 0.13 ratio
CUUGAGCCUAACAAGUCCAUCUUCAAGCAAAUGAAAUCUCAUCCACCAUACACCAUGUGCUUUAGAGUGAAAUUCUACCCACAUGAACCCUUGAAGAUUAAAGAAGAGCUCACAAGGUAC: 0.204 ratio
UUAAUUUAUAUGAAGUUUGAUUUUUUAAAAAAUACCUGAAUUAUUAUUGCCUGCCCUGGCUAGUUUUAUAUCAACUUGAUACAAGCUAGAGUCAUUUGGGGAGAGGGACUCUGAAUUGAG: 1.01 ratio
UUCAGGCUCAUUUGUACUCUCUUCCCCUCUCAUCGUCAUGGUCAGGCUCUGAUACCUGCUUUUAAAAUGGAGCUAGAAUGCUUGCUGGAUUGAAAGGGAGUGCCUAUCUAUAUUUAGCAA: 0.617 ratio

Set 3
Target: RNA binding protein fox-1 homolog 2, RRM domain, GST-SBP tag (RBFOX2, Homo sapiens, UniProt O43251-10, residues 100-194)
Method: RNA Bind-n-Seq
Molecule type: RNA
Medium: in vitro
Tested at: 365 nM
Setting: natural RNA segment, single round, ends assumed
Baseline: no-protein control
Reading: higher = stronger binding
Endpoint: RBNS enrichment (R)
All sequences stand within: GGGAGUUCUACAGUCCGACGAUC … UGGAAUUCUCGGGUGCCAA
Construct (chain): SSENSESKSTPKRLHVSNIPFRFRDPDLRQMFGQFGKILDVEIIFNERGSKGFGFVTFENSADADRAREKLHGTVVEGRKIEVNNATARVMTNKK
AUGAUUUUGUGACUUCUGGUCAGUCGGUCAGCAGGCCGGGAUGUAUCAUUACCCUGAGCGAGCUGGAAGGGUGGUCACCCUGCACCUAGCCAGCCAUGCAGGCUCCAUCA: 0.391
AUAAGGAAAACAAAGCGACGCCUAUUUUGUAUAAAGUUUCCGACUCCGUCUUGGCCAUGUCUAGUAAUUGCUAUGUGUUGGGAGAAACUUUGUGAAUGCACCAUUUUGAU: 2.58
GGUGGGAAUGGGAUGGGGUGGACCUUCUCUUGCUUGGUGCUCCGCUAUUUGGAACAGUUCUUACACAUUUGCUGGGCCUGGCCUCUGAGAGGCCAUCUUCCACCCCCAGA: 0.785
AAAAUACUGAACAUAGCUGUAUAGGUUUGUGAUUAUUAGAGAAUAUGUUAAUAAAACUUCUUGUAACGGCUAACUGCCACCUAAAAUAUGCUGGGUUUUCUGUUGUUUGA: 0.434
GGAACACCGGAACAUCAUGCUCACCUGCCAUCACUAUGCAUCCAGUUCCCACAGCUUGUGUCGUGAAAGAGCAGAGAGAUGAUGUUAAACUCCUUGGGAGGAGAGAGGGC: 0.325
AAAAAAAAAAAAGGACUAUUACAGAUCCCAAUACUUGGAUUUGGUGACCUUGUCUUUCUUUCUUUUCUUGAGACAUGGUCCUACUACCAACCCUGGCUGGACUGGAGCUC: 0.435
AUAGGAAUAGCGUAGGAAUAGAAAUUUGCCCAAGACUUUGAUAGUCAUCUGGUUUCAGUUCAGCAAGGGUACUUGAAUCAAUAUGGUAGCCCCAUCUGGACCAUCCACCC: 0.425
GGACAUGGCAAAGAGAAUACAGCGAAGCCCCUUCUCUUCCUACCAAACAACUCUGUAGAGCUCUCUGCACCCUGUACCCUUUUCACCUUUUGUAUUUAAUUUUAAAGUCA: 0.488
AUUCAGAGACUUUUGCUUUGCUUUCCAACUUGUAUCCCUACAUUCUCACAACAGCCUUCUUACCUCGGGUGAGAGUCAUGAGCACCUUACCAGGCAGGGAGCUUCCCCAG: 0.384
CCUGUGAAACCUGUAUUAUACUGCUCUUCUGAAGUAAGACUUUUCUACACCGGUAGCCUUCGCUGUCUGUCAGUCAGGACCUCUGGUAUAGGUGAUGUAAAAUAACCGUA: 0.347
AUAGAGAAGCCAUGGUUUCUGCUUCUCUCCAGGAGUCAGGCUUGCCACUCCAGCUGGGCCGGUGUGCAGUGGGCCAGGGUCCUCACCUGCCUUGCAGACCCUGGUUCCCG: 1.64
GCACAGGAGAGUCCUGUGUGUAGUGAGGGUUUUCCAUGAUCUAUUCUUGCAGUUUUUUUGGUAAUACCGUGGUCUAUUUAUACAAAUAUUAAAAGUGCUGUUUAUAGAGC: 0.581

Other studies, line by line
PhoQ, residues 284 288 289 292 302 303 SLGVVW  fold induction (PhoP, residues 12 14 15 18 19 TQAIL (Escherichia coli, UniProt P23836); Sort-seq, item: YFP reporter; E. coli; PhoQ-PhoP variant library, added: 10 µM Mg2+; baseline: high Mg2+ state, higher = stronger signaling): 5.93

A few entries again (set 1):
F4E: -0.0232
R5L: 0.467
R5F: 0.0623
R5D: 0.406
T3W: 0.51
